Results pooled from the literature.
Each line is one published result; not all experiments were run side by side. ± gives the spread as reported.
Organism: Leishmania infantum

Cc1ncnc2c1c(C1CCOCC1)cn2[C@@H]1O[C@H](CO)[C@@H](O)[C@H]1O
EC50 (parasite growth, imaging; mouse Macrophage; 5 days, intracellular, amastigote): 5.31 µM

c1ccc2c(NCCCn3ccnc3)nncc2c1
infection inhibition (J774.2 macrophages; IC25, 240 h, day 10; baseline: untreated): 47%

N=C(N)c1ccc(OCCCCCOc2ccc(C(=N)N)cc2)cc1
IC50 (viability, MTS; human clinical isolate promastigote; 72 h): 1.5 µM

CCc1cn([C@@H]2O[C@H](CO)[C@@H](O)[C@H]2O)c2ncncc12
EC50 (parasite growth, imaging; mouse Macrophage; 5 days, intracellular, amastigote): > 64 µM

C[C@@H]1[C@H](O)[C@@H](C)/C=C/C=C/C=C/C=C/C=C/C=C/C=C/[C@H](O[C@@H]2O[C@H](C)[C@@H](O)[C@H](N)[C@@H]2O)C[C@@H]2O[C@](O)(C[C@@H](O)C[C@@H](O)[C@H](O)CC[C@@H](O)C[C@@H](O)CC(=O)O[C@H]1C)C[C@H](O)[C@H]2C(=O)O
EC50 (intracellular amastigotes, ex vivo mouse splenic explants; 72 h): 0.32 ± 0.05 µM

C/C=C(\C)C(=O)NCc1ccc2c(c1)C(=O)CC(C)(C)N2
IC50 (bone marrow-derived macrophages, intracellular amastigotes; 24 h): > 10 µM

Cc1ncnc2c1c(C1CCCC1)cn2[C@@H]1O[C@H](CO)[C@@H](O)[C@H]1O
EC50 (parasite growth, imaging; mouse Macrophage; 5 days, intracellular, amastigote): > 64 µM

O=C(CN1C(=O)Cc2c([nH]c3ccc(Br)cc23)-c2ccc(Cl)cc21)N1CCNCC1
EC50 (parasite growth; J774; 24 h, intracellular, amastigote): 0.9 µM

COc1ccc(S(=O)(=O)Nc2cc(C#N)ccc2OS(=O)(=O)c2ccc(OC)cc2)cc1
selectivity index (U-937 macrophages, intracellular amastigotes; baseline: IC50 HeLa over IC50 amastigotes): 3.45

Cc1ncnc2c1c(C1=CCCCC1)cn2[C@@H]1O[C@H](CO)[C@@H](O)[C@H]1O
EC50 (parasite growth, imaging; mouse Macrophage; 5 days, intracellular, amastigote): > 64 µM

Cc1cn(CC(c2cn(C)c3ccccc23)c2cn(C)c3ccccc23)nn1
IC50 (viability, MTS; human clinical isolate promastigote; 72 h): 7.4 µM

CCOC(=O)c1c(C#N)c(-c2c[nH]c3ccccc23)n(N)c1C
inhibition (parasite growth; 20 µM, 72 h, promastigote): -49.8%

C/C=C(\CO)C(=O)OCc1ccc2c(c1)C(=O)CC(C)(C)O2
IC50 (bone marrow-derived macrophages, intracellular amastigotes; 24 h): 5 to 10 µM

COC(=O)c1c(C)ncn1CC(c1c[nH]c2ccc(C)cc12)c1c[nH]c2ccc(C)cc12
IC50 (viability, MTS; human clinical isolate promastigote; 72 h): 6.1 µM

Cc1ncnc2c1c(CCC(C)C)cn2[C@@H]1O[C@H](CO)[C@@H](O)[C@H]1O
EC50 (parasite growth, imaging; mouse Macrophage; 5 days, intracellular, amastigote): > 64 µM

c1ccc2c(Cc3c[nH]c4ccccc34)c[nH]c2c1
inhibition (viability, MTS; human clinical isolate, promastigote; 20 µM, 72 h): 22%

C/C=C(\CO)C(=O)NCc1ccc2c(c1)C(=O)CC(C)(C)N2
IC50 (bone marrow-derived macrophages, intracellular amastigotes; 24 h): 5 to 10 µM

Cc1ncnc2c1c(C#CC(C)C)cn2[C@@H]1O[C@H](CO)[C@@H](O)[C@H]1O
EC50 (parasite growth, imaging; mouse Macrophage; 5 days, intracellular, amastigote): > 64 µM

CC(C)=CC(=O)NCc1ccc2c(c1)C(=O)CC(C)(C)N2
IC50 (bone marrow-derived macrophages, intracellular amastigotes; 24 h): > 10 µM

COC(=O)c1c(C)ncn1CC(c1cn(C)c2ccccc12)c1cn(C)c2ccccc12
IC50 (viability, MTS; human clinical isolate promastigote; 72 h): 5.5 µM

Cc1ncnc2c1c(CC(C)C)cn2[C@@H]1O[C@H](CO)[C@@H](O)[C@H]1O
EC50 (parasite growth, imaging; mouse Macrophage; 5 days, intracellular, amastigote): > 64 µM

C/C=C(\CO)C(=O)NCc1ccc2c(c1)C(=O)CC(C)(C)O2
IC50 (bone marrow-derived macrophages, intracellular amastigotes; 24 h): 5 to 10 µM

Cc1ncnc2c1c(C(C)C)cn2[C@@H]1O[C@H](CO)[C@@H](O)[C@H]1O
EC50 (parasite growth, imaging; mouse Macrophage; 5 days, intracellular, amastigote): 22.6 µM

COC(=O)c1c(C)ncn1CC(c1c[nH]c2ccccc12)c1c[nH]c2ccccc12
IC50 (viability, MTS; human clinical isolate promastigote; 72 h): 8.1 µM

CCCCCCCCCCCCCCCCOP(=O)([O-])OCC[N+](C)(C)C
EC50 (parasite growth; 72 h, promastigote): 5.9 µM

Repeated from above:
Cc1cn(CC(c2cn(C)c3ccccc23)c2cn(C)c3ccccc23)nn1
IC50 (viability, MTS; human clinical isolate promastigote; 72 h): 7.4 µM

CCOC(=O)c1c(C#N)c(-c2c[nH]c3ccccc23)n(N)c1C
inhibition (parasite growth; 20 µM, 72 h, promastigote): -49.8%
